Measurements of several laboratories.
Parts stem from different laboratories: compare values within a part only.
Chain of UniProt P51956 (whole entry, looked up): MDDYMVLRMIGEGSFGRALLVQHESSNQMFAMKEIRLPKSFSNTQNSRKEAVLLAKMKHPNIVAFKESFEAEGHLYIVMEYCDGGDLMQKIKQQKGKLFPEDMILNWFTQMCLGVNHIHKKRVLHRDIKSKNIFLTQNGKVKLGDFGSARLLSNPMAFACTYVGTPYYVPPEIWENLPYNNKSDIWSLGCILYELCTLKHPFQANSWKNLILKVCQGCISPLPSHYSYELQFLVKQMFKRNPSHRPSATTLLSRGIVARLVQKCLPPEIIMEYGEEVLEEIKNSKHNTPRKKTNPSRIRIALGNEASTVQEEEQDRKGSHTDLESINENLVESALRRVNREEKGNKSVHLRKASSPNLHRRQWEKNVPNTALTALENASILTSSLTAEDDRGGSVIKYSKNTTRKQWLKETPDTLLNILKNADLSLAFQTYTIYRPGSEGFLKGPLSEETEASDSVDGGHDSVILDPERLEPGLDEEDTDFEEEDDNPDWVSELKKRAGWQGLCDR
Chain of UniProt P35968 (whole entry, looked up): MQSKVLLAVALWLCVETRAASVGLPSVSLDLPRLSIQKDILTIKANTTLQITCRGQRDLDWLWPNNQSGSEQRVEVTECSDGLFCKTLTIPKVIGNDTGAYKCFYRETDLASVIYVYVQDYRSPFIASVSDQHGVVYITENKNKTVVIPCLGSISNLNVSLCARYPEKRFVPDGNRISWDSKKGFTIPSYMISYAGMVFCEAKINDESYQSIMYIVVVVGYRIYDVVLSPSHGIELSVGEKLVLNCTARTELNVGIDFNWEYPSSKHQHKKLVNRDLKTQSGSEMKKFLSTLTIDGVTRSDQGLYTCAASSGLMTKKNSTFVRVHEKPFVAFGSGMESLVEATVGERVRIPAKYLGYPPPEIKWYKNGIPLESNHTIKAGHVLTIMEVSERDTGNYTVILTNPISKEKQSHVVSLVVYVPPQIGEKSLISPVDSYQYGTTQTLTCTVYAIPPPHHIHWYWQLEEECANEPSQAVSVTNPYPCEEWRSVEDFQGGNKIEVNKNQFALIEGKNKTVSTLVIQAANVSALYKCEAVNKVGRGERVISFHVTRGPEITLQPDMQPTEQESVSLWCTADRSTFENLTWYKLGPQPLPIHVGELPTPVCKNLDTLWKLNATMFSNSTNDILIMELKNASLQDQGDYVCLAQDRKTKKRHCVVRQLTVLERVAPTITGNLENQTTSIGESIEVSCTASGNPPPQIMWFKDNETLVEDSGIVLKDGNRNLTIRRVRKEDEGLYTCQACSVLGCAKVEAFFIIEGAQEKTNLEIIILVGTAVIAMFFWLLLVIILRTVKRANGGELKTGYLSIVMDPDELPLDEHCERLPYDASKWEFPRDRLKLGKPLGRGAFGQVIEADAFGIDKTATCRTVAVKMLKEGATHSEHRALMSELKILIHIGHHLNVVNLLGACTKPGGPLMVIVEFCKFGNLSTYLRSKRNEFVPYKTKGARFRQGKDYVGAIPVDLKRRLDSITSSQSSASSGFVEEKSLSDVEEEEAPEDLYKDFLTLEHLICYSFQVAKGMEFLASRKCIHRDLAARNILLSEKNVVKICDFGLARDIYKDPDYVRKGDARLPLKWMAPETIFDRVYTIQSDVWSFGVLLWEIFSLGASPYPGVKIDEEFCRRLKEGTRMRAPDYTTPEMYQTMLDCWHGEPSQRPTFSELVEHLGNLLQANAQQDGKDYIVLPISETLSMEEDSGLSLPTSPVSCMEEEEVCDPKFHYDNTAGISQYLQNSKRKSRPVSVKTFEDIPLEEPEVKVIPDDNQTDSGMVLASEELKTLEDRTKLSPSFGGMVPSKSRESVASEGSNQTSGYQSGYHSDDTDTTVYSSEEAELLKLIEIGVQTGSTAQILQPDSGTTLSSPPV
Chain of UniProt P42681 (whole entry, looked up): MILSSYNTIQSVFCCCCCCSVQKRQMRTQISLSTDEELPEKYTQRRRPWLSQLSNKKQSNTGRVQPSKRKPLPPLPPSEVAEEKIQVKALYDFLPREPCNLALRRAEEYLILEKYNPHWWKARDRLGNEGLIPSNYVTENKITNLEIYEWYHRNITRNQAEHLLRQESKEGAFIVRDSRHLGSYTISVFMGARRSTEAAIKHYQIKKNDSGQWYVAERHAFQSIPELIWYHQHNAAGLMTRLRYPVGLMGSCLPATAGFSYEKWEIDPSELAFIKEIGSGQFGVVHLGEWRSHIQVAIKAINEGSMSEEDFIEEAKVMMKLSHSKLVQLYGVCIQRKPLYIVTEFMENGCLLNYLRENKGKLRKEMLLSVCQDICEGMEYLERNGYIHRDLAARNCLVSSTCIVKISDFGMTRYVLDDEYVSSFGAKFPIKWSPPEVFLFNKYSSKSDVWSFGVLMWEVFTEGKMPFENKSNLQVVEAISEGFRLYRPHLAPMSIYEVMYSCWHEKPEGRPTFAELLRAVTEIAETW
Chain of UniProt Q9H4B4 (whole entry, looked up): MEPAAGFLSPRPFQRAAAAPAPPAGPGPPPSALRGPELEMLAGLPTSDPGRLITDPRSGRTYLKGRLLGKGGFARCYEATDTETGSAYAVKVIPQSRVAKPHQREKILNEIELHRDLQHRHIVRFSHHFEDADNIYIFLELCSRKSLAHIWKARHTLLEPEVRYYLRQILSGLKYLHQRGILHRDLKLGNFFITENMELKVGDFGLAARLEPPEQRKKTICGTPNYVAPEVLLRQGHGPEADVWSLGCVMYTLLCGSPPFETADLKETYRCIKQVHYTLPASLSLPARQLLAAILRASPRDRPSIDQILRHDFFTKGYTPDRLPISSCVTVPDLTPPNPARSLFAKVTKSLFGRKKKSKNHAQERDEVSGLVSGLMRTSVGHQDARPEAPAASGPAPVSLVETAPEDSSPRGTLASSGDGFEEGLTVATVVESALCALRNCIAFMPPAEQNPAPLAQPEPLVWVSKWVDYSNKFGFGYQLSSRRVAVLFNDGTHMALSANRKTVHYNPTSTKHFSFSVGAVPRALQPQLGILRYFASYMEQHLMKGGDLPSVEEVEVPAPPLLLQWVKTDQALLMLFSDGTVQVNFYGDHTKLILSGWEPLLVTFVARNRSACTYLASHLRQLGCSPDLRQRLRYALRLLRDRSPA
Chain of UniProt P50750 (whole entry, looked up): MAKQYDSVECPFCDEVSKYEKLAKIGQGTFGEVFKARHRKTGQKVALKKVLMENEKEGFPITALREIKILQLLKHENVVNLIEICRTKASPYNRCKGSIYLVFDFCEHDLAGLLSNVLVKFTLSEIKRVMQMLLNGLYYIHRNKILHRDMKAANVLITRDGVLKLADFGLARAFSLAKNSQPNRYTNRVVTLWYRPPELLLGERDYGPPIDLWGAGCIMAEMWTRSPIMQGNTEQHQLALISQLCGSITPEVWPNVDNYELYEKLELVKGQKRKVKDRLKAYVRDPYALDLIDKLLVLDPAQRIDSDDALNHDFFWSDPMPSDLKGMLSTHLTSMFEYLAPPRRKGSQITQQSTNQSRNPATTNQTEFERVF
Chain of UniProt P32298 (whole entry, looked up): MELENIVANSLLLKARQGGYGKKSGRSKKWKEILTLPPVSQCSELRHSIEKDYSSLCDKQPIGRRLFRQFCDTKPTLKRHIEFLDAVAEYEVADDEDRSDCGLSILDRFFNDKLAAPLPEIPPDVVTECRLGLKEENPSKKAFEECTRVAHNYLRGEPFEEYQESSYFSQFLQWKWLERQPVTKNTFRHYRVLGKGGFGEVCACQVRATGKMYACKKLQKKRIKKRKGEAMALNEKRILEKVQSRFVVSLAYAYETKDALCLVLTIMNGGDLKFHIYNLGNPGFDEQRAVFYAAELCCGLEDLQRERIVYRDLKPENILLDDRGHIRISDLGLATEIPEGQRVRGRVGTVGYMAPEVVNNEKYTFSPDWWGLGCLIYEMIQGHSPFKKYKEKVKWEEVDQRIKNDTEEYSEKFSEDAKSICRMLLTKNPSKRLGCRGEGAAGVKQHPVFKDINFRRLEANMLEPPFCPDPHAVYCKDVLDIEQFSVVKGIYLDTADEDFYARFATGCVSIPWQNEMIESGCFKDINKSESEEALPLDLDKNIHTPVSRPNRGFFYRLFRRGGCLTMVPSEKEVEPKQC

Study 1 — effect on: binding; technique: radioligand binding; concentration: 10 µM; quantity: inhibition
Target: D(4) dopamine receptor (DRD4, Homo sapiens, UniProt P21917)
Chain of UniProt P21917 (whole entry, looked up): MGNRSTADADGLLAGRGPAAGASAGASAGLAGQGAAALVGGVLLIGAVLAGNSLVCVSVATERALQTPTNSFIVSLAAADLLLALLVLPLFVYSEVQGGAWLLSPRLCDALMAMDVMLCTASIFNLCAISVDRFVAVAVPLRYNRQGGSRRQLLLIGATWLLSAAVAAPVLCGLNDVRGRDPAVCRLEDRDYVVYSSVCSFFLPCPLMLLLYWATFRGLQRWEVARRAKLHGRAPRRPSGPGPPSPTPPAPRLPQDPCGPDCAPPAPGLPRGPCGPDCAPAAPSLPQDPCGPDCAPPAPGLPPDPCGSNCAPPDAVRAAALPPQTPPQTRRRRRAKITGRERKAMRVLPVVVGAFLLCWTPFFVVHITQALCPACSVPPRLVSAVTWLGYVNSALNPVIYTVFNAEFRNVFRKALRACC
CC(C)(O)c1cncc(-c2nc3ccc(F)cc3n2C2CC2)c1: -5.72%
Cc1nc(C2CCN(C(=O)c3ccc(OC(F)(F)F)cc3N)CC2)c2ncc(N3CCN(C)CC3)cc2n1: 1.98%
CCCOc1ccc([C@H]2[C@H](C(=O)O)[C@@H](c3ccc4c(c3)OCO4)CN2CC(=O)Nc2c(CC)cccc2CC)cc1: -3.59%
CN1C(=O)[C@@H](N2CCc3cn(Cc4ccccc4)nc3C2=O)COc2ccccc21: 17.4%
O=C1CCc2cc(Nc3cc(OC4CCOCC4)c([N+](=O)[O-])cc3Cl)ccc2N1: -2.6%
Cc1cc(-n2nc(Cc3cc(F)cc(C(F)(F)F)c3)nc2C)ccc1C(N)=O: -2.09%
Cc1c[nH]c2nccc(Oc3c(F)cc(Nc4cc(Cl)nc(N)n4)cc3F)c12: 11.4%
Cc1nc(Cc2cccc(C(F)(F)F)c2)sc1-c1ccc(C(N)=O)nc1: -2.16%

Study 2 — effect on: enzyme activity; action: inhibitor; concentration: 0.5 µM; reference: control; quantity: remaining activity
Structure (SMILES): N#C/C(=C(/N)SC1C=CC=CC1)c1cccc(C(O)c2ccncc2)c1 (stereo not shown)
MET (Homo sapiens, UniProt P08581): 109%
CLK4 (Homo sapiens, UniProt Q9HAZ1): 95.5%
TXK (Homo sapiens, UniProt P42681): 92.2%
DDR2 (Homo sapiens, UniProt Q16832): 92.2%
Cyclin-dependent kinase 9, with cyclin K (CDK9, Homo sapiens, UniProt P50750): 87%
MAPK14 (Homo sapiens, UniProt Q16539): 86.9%
DCLK2 (Homo sapiens, UniProt Q8N568): 97.1%
ROCK1 (Homo sapiens, UniProt Q13464): 102%
PLK3 (Homo sapiens, UniProt Q9H4B4): 94%
NEK3 (Homo sapiens, UniProt P51956): 102%
RPS6KA4 (Homo sapiens, UniProt O75676): 109%
Cyclin-dependent kinase 1, with cyclin A (CDK1, Homo sapiens, UniProt P06493): 90.8%
MINK1 (Homo sapiens, UniProt Q8N4C8): 94.9%
PAK3 (Homo sapiens, UniProt O75914): 102%
CDC42BPB (Homo sapiens, UniProt Q9Y5S2): 117%
PRKG2 (Homo sapiens, UniProt Q13237): 110%
AKT2 (Homo sapiens, UniProt P31751): 103%
CAMK4 (Homo sapiens, UniProt Q16566): 103%
MAP2K1 (Homo sapiens, UniProt Q02750): 92.3%
GRK4 (Homo sapiens, UniProt P32298): 97.7%
MAPK11 (Homo sapiens, UniProt Q15759): 94%
KDR (Homo sapiens, UniProt P35968): 100%
MARK4 (Homo sapiens, UniProt Q96L34): 101%
CLK3 (Homo sapiens, UniProt P49761): 102%

Study 3 — effect on: RNA clamping; technique: fluorescence polarization; concentration: concentration not given; together with: FAM-labelled poly r(AG)8 RNA; direction: higher = more clamping; quantity: fluorescence polarization change
Target: Eukaryotic initiation factor 4A-I (EIF4A1, Homo sapiens, UniProt P60842)
Chain of UniProt P60842 (whole entry, looked up): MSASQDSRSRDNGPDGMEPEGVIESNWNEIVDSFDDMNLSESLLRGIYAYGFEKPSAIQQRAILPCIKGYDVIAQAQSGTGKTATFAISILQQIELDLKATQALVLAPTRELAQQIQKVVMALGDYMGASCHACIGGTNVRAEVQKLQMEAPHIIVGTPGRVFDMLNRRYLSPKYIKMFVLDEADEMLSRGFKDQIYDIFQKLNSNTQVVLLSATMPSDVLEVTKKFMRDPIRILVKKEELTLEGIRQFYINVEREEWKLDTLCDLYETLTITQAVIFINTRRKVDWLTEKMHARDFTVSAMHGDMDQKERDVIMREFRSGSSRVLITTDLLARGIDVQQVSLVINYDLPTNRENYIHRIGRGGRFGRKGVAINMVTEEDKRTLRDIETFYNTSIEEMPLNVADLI
COC(=O)[C@@H]1[C@@H](c2ccccc2)[C@]2(c3ccc(OC)cc3)Oc3cc(OC)cc(OC)c3[C@@]23NC(C2CCC2)=N[C@@]13O: 72.1 mP
COc1cc(OC)c2c(c1)N(C)[C@]1(c3ccc(Br)cc3)C(=O)[C@@]2(O)[C@H](c2ccccc2)[C@H]1c1ccccc1: 3.7 mP
COC(=O)[C@@H]1[C@@H](c2ccccc2)[C@]2(c3ccc(OC)cc3)Oc3cc(OC)cc(OC)c3[C@@]23N=C2CCCCN2[C@@]13O: 50.7 mP

Study 4 — quantity: inhibition
SMILES: COc1cc(C(=O)N2CCC(N3CCN(C)CC3)CC2)ccc1Nc1ncc2c(n1)N(C)c1ccccc1C(=O)N2C
OSR1 (mouse); probe labelling, KiNativ ADP probe; mouse brain lysate; 1 µM, LYS2 labelled site: -10.4%
inhibitor, KiNativ profiling, measured: peptide VLGTGAYGkVFLVR; human PBMC lysate; concentration not given, ATP loop site, together with: ATP acyl-phosphate probe: 2.4%
mouse PCTAIRE1/2/3; probe labelling, KiNativ ADP probe; mouse brain lysate; 0.1 µM, LYS2 site DLkPQNLLINER: -11.1%
human PBMC; probe labeling, inhibitor, KiNativ profiling, measured: EVAVkIIDK; cell lysate; concentration not given, LYS1 site, together with: ADP acyl-phosphate probe: -2.2%
WNK1, WNK2 and WNK4 (human); probe labelling, KiNativ, measured: IGDLGLATLkR peptide, activation loop; PBMC lysate (human); 1 µM, together with: ATP acyl-phosphate probe: 4.6%
CaMKK1 (mouse); probe labelling, KiNativ, measured: Lys1 site peptide; brain tissue lysate (mouse); 1 µM, together with: ADP acyl-phosphate probe: 11.5%
TRKC (mouse); probe labelling, KiNativ, measured: LYS1 site peptide; brain tissue lysate (mouse); 0.1 µM, together with: ADP acyl-phosphate probe: 12.7%
Receptor tyrosine-protein kinase erbB-4 (Erbb4, Mus musculus, UniProt Q61527); KiNativ profiling; mouse brain lysate; 1 µM, LYS1 site, together with: ADP acyl phosphate probe: 6.1%

Study 5 — sample: plasma; route: oral; quantity: plasma concentration, mean
Structure (SMILES): COc1ccc(-c2c(Nc3ccccn3)[nH]c3c(C4=CCCCC4)c(-c4ccccc4)nn3c2=O)cc1
LC-MS/MS; human; 200 mg twice daily, 48 h, single dose: 642 ng/mL
LC-MS/MS; human; 200 mg twice daily, 2 h, single dose: 1230 ng/mL
LC-MS/MS; human; 200 mg twice daily, 0 h: 11400 ng/mL
human patients; 200 mg once daily, 0.5 h, cycle 1: 6670 ng/mL
LC-MS/MS; human; 200 mg twice daily, 1 h, single dose: 546 ng/mL
cancer patients; 150 mg, 0.5 h post-dose, single dose: 405 ng/mL

Excerpt of the above (study 4):
mouse PCTAIRE1/2/3; probe labelling, KiNativ ADP probe; mouse brain lysate; 0.1 µM, LYS2 site DLkPQNLLINER: -11.1%
inhibitor, KiNativ profiling, measured: peptide VLGTGAYGkVFLVR; human PBMC lysate; concentration not given, ATP loop site, together with: ATP acyl-phosphate probe: 2.4%
human PBMC; probe labeling, inhibitor, KiNativ profiling, measured: EVAVkIIDK; cell lysate; concentration not given, LYS1 site, together with: ADP acyl-phosphate probe: -2.2%
